{"data": "Published values collected from several papers", "B1": "SACOL1063 (Staphylococcus aureus, UniProt Q5HH30); chain MFSKVNNQKMLEDCFYIRKKVFVEEQGVPEESEIDEYESESIHLIGYDNGQPVATARIRPINETTVKIERVAVMKSHRGQGMGRMLMQAVESLAKDEGFYVATMNAQCHAIPFYESLNFKMRGNIFLEEGIEHIEMTKKLTSLN", "B2": "enzyme (Bacillus pumilus, UniProt A8FFI9); chain EARSIAWSVDEFFKNREGTFVIQEVKEKSPWVYNKKRAKERFAPQSTFKVANALIGLQTGAVRDEYDIKYWDGVKREIDNWNRDHTLGSGMRDSVVWYYQAMARDIGEERMNHWVKAIHYGNKDISGGIDQFWLSSTLRISPIEQVRFLKQLYEETLPFDLKNMRTVKRMMVQEEEKHATLYGKTGSGSDIGWYVGFIKHEHKTYILATNIKGTGIEAKDITYRILKKYHLMEASV", "note": "± gives the spread as reported. Ends that are not written are not given here. No end group written: not given here. *: point of attachment.", "UniProt Q6QT07, sequence (whole entry, looked up)": "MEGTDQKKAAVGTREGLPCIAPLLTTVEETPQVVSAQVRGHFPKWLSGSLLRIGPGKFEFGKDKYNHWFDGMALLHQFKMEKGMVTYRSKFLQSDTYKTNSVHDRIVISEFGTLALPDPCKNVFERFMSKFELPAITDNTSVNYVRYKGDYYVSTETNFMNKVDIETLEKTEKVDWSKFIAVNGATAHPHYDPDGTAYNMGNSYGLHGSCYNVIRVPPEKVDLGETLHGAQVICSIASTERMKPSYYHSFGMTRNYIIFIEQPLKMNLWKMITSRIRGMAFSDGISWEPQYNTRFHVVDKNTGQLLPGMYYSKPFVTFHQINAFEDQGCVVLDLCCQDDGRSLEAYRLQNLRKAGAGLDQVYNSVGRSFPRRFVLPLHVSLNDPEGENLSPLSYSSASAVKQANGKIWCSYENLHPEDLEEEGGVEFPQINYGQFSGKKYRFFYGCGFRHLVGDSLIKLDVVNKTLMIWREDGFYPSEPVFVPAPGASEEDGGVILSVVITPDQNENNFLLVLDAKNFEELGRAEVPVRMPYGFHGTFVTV", "UniProt O60656, sequence (whole entry, looked up)": "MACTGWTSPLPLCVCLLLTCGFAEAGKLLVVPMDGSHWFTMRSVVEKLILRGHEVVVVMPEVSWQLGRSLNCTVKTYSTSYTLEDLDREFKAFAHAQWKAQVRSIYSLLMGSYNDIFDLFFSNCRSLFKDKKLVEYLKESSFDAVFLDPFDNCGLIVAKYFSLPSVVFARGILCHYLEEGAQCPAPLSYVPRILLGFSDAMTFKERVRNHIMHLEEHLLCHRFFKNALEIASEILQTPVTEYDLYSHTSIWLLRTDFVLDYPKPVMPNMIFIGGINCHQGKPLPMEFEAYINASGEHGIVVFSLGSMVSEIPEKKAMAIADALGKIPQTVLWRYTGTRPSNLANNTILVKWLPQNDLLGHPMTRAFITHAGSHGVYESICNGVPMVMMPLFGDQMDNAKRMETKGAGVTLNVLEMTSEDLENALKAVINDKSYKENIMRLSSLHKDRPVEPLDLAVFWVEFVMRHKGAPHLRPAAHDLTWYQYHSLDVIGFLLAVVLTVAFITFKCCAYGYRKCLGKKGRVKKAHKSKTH"}
{"Molecule": "RBRBRBRBRBRBRBRBB (PMO conjugate)", "target or system": "pLuc705", "assay": "MTT", "system": "peptide", "conditions": "2 to 60 µM, 24 h, 10% serum, D-arginine variant", "measurement": "viability", "value": "no effect"}
{"Molecule": "GSS(Octanoyl)FLSPEHQRVQQRKESKKPPAKLQPR (ghrelin; Octanoyl = CCCCCCCC(=O)*; sequence looked up)", "target or system": "Calu-3 monolayer", "system": "peptide, basal side", "conditions": "1 mg/mL, 3 h, apical to basal", "measurement": "permeated amount", "value": "0%"}
{"Molecule": "BCO2 (Mustela putorius furo, UniProt Q6QT07)", "target or system": "CC1=C(/C=C/C(C)=C/C=C/C(C)=C/C=C/C=C(C)/C=C/C=C(C)/C=C/C2=C(C)C[C@@H](O)CC2(C)C)C(C)(C)CCC1", "assay": "steady-state kinetics", "system": "crude Sf9 lysate", "conditions": "pH 8.5, 37 °C, apparent, not purified, together with: FeSO4 10 µM, NAD+ 3 mM", "measurement": "K0.5", "value": "80.8 µM"}
{"Molecule": "UGT1A9 (Homo sapiens, UniProt O60656)", "target or system": "Cc1ccc2oc(-c3ccc4c(c3)OCO4)c(O)c(=O)c2c1", "assay": "steady-state kinetics", "conditions": "pH 7.4, 37 °C", "measurement": "Vmax/Km", "value": "91000 µL/min/mg"}
{"Molecule": "KCNTATCATQRLANFLVHSSNNFGPILPPTNVGSNTY (Pramlintide; not fully specified (C-terminus, bridges); cysteine pairing not given here; sequence looked up)", "assay": "refers to: Vomiting", "system": "peptide, obese or overweight humans", "conditions": "concentration not given, ITT population", "measurement": "adverse event incidence", "value": "1.8%"}
{"Molecule": "B1 (SACOL1063)", "target or system": "C[C@@H](O)[C@H](N)C(=O)O", "assay": "steady-state kinetics", "conditions": "pH 8, 37 °C, Hill coefficient, together with: AcCoA 1 mM, L-Thr 0-10 mM", "measurement": "K0.5", "value": "11600 µM"}
{"Molecule": "B2 (enzyme)", "target or system": "C[C@@H](O)[C@H]1C(=O)N2C(C(=O)O)=C(S[C@@H]3CN[C@H](CNS(N)(=O)=O)C3)[C@H](C)[C@H]12", "assay": "steady-state kinetics", "conditions": "pH 7", "measurement": "kcat", "value": "0.014 ± 0.02 s⁻¹"}
{"Molecule": "CC(C)[C@H](NC(=O)[C@@H]1CCCN1C(=O)[C@H](CCCNC(=N)N)NC(=O)[C@H](CS)NC(=O)[C@H](Cc1c[nH]c2ccccc12)NC(=O)[C@H](CCCNC(=N)N)NC(=O)[C@@H](Cc1ccccc1)NC(=O)[C@H](Cc1c[nH]cn1)NC(=O)[C@H](CCC(=O)O)NC(=O)[C@H](CS)NC(=O)[C@H](CS)NC(=O)[C@H](CCCCN)NC(=O)[C@@H]1CC(=O)N[C@@H](CCCNC(=N)N)C(=O)N[C@@H](C)C(=O)N[C@@H](CC(=O)O)C(=O)N[C@H](Cc2ccc(O)cc2)C(=O)N1)C(N)=O [technetium-99m labelled]", "system": "C57 mice, heart", "conditions": "intravenous, 0.037 MBq, 2 h", "measurement": "tissue uptake", "value": "0.32 ± 0.13 %ID/g"}
{"Molecule": "COc1cccc2c1C(=O)c1c(O)c3c(c(O)c1C2=O)C[C@@](O)(C(=O)CO)C[C@@H]3O[C@H]1C[C@H](NC(=O)[C@@H]2CCCN2C(=O)CN)[C@H](O)[C@H](C)O1", "system": "mouse, E0771 tumour-bearing, tumor", "conditions": "intravenous, 92 µmol/kg PhAc-ALGP-Dox", "measurement": "Cmax", "value": "20.9 µM"}
{"Molecule": "insulin degludec", "assay": "ELISA", "system": "human mild renal impairment, serum", "conditions": "dose not given, single dose", "scale": "relative to: impaired over normal renal function", "measurement": "Cmax ratio", "value": 1.14}
{"Molecule": "FITC-labelled amyloid β(1-40)", "target or system": "bEnd.3, claudin-5 and occludin siRNA", "assay": "apical to basolateral, Transwell", "conditions": "10 µM, 2 h, 37 °C, 72 h after siRNA", "scale": "relative to: non-targeting siRNA", "measurement": "permeability", "value": "increased"}
{"Molecule": "protein (Sinorhizobium meliloti, UniProt Q92LZ4)", "target or system": "NC(=O)C1=CN([C@@H]2O[C@H](COP(=O)(O)OP(=O)(O)OC[C@H]3O[C@@H](n4cnc5c(N)ncnc54)[C@H](OP(=O)(O)O)[C@@H]3O)[C@@H](O)[C@H]2O)C=CC1", "assay": "steady-state kinetics", "conditions": "pH 7.5, 25 °C, NaCl 150 mM, cofactor varied, together with: hydroxypyruvate 66.7 mM", "measurement": "K0.5", "value": "59 µM"}
